{"data": "Measurements pooled from the literature", "cell line": "MDA-MB-231", "note": "Each line is one published result; not all experiments were run side by side. Numbers after ± are the reported error. Ends that are not written are not given here. * marks the point of attachment."}
{"Molecule": "COc1ccc(N2CCN(CC(=O)Nc3ccc(C4=NN(C(C)=O)C(c5ccc(Cl)cc5Cl)C4)cc3)CC2)cc1 (stereo not drawn)", "assay": "cell growth or viability, MTT", "quantity": "IC50", "value": "51.6 µM"}
{"Molecule": "COc1cccc2c1C(=O)c1c(O)c3c(c(O)c1C2=O)C[C@@](O)(C(=O)CO)C[C@@H]3O[C@H]1C[C@H](N)[C@H](O)[C@H](C)O1", "assay": "fluorescence microscopy", "setting": "7.5 µM, added: endocytosis inhibition (low temperature or sodium azide)", "quantity": "cellular uptake", "value": "decreased"}
{"Molecule": "CN(Cc1cccc(CN(C)c2ccc(F)cc2)n1)c1ccc(F)cc1", "assay": "Matrigel invasion", "setting": "100 nM, 22 h, added: CXCL12 200 ng/mL", "quantity": "invasion inhibition", "value": "< 50%"}
{"Molecule": "COc1ccc(-c2c3n(c4c(=O)[nH]nc(O)c24)CCn2cccc2-3)cc1", "assay": "cell growth or viability, MTT", "setting": "48 h", "quantity": "IC50", "value": "61 µM"}
{"Molecule": "COc1c(C=O)c(O)cc2c1C(=O)c1ccccc1C2=O", "assay": "chemotactic migration, inhibitor, Transwell", "setting": "3 h, added: 10% FCS", "quantity": "effective concentration range", "value": "1 to 10 µM"}
{"Molecule": "CNC(=O)c1cc(Oc2ccc(NC(=O)Nc3ccc(Cl)c(C(F)(F)F)c3)cc2)ccn1", "assay": "cell proliferation", "setting": "1 µM, 72 h, colloidal and monomeric formulation", "how to read": "relative to: untreated", "quantity": "inhibition", "value": "~65%"}
{"Molecule": "COc1ccc2oc(-c3ccc4nc(N)oc4c3)c/c(=N\\c3ccccc3NC(=O)CCN)c2c1", "assay": "cell growth or viability, CCK-8", "setting": "1 µM", "quantity": "inhibition", "value": "70.7%"}
{"Molecule": "O=c1[nH]nc(O)c2c(-c3ccccc3)c3n(c12)CCn1cccc1-3", "assay": "cell growth or viability, MTT", "setting": "48 h", "quantity": "IC50", "value": "87.3 µM"}
{"Molecule": "Dnp-KEQNPIYWARYADWLFTTPLLLLELALLVDADEGTG (DNP-labelled; Dnp = O=[N+]([O-])c1ccc(*)c([N+](=O)[O-])c1)", "assay": "ADCC", "setting": "0.1 µM, 4 h, pH 7.4, effector:target 50:1, added: anti-DNP antibody, PBMC", "quantity": "cell lysis", "value": "20%"}
{"Molecule": "O=C(COc1ccc(-c2cnc3ccccc3n2)cc1)NCCNC(=O)COc1ccc(-c2cnc3ccccc3n2)cc1", "assay": "cell viability, MTT", "quantity": "IC50", "value": "> 50 µM"}
{"Molecule": "CSc1nccc(NCc2ccc(CNc3ncc(F)cn3)cc2)n1", "assay": "cell invasion (Matrigel)", "setting": "100 nM, added: CXCL12 200 ng/mL", "quantity": "inhibition", "value": "92%"}
{"Molecule": "COc1cccc2c1C(=O)c1c(O)c3c(c(O)c1C2=O)C[C@@](O)(C(=O)CO)C[C@@H]3O[C@H]1C[C@H](N)[C@H](O)[C@H](C)O1", "assay": "cell viability", "how to read": "relative to: 3D mono-culture over tissue chip", "quantity": "IC50 ratio", "value": "~70 fold"}
{"Molecule": "c1cc(CN2CCCNCCNCCCNCC2)ccc1CN1CCCNCCNCCCNCC1", "setting": "0.1 µM, 22 h", "quantity": "inhibition", "value": "55%"}
{"Molecule": "COC(=O)c1c(-c2ccccc2)c2n(c1C(=O)OC)CCn1cccc1-2", "assay": "cell growth or viability, MTT", "setting": "48 h", "quantity": "IC50", "value": "71.1 µM"}
{"Molecule": "Fc1cnc(NCc2ccc(CNc3nccc(C(F)(F)F)n3)cc2)nc1", "assay": "cell invasion (Matrigel)", "setting": "10 nM, added: CXCL12 200 ng/mL", "quantity": "inhibition", "value": "> 60%"}
{"Molecule": "O=c1[nH]nc(O)c2c(-c3cccc(O)c3)c3n(c12)CCn1cccc1-3", "assay": "cell growth or viability, MTT", "setting": "48 h", "quantity": "IC50", "value": "84.6 µM"}
{"Molecule": "COc1ncc(F)c(NCc2ccc(CNc3nc(OC)ncc3F)cc2)n1", "assay": "cell invasion (Matrigel)", "setting": "10 nM, added: CXCL12 200 ng/mL", "quantity": "inhibition", "value": "> 60%"}
{"Molecule": "O=c1[nH]nc(O)c2c(-c3cccc([N+](=O)[O-])c3)c3n(c12)CCn1cccc1-3", "assay": "cell proliferation, MTT", "setting": "48 h", "quantity": "IC50", "value": "13.14 ± 0.005 µM"}
{"Molecule": "COc1cccc2c1C(=O)c1c(O)c3c(c(O)c1C2=O)C[C@@](O)(C(=O)CO)C[C@@H]3O[C@H]1C[C@H](N)[C@H](O)[C@H](C)O1", "assay": "cell growth or viability, MTT", "setting": "48 h", "quantity": "EC50", "value": "3.28 µg/mL"}
{"Molecule": "C#C[C@@]1(O)[C@@H](CO)O[C@@H](n2cc(I)c3c(N)ncnc32)[C@@H]1O", "assay": "SRB", "setting": "48 h", "quantity": "GI50", "value": "0.186 ± 0.02 µM"}
{"Molecule": "COC(=O)c1c(-c2cccc(Cl)c2)c2n(c1C(=O)OC)CCn1cccc1-2", "assay": "cell growth or viability, MTT", "setting": "48 h", "quantity": "IC50", "value": "75.3 µM"}
{"note": "Some of these lines once more:"}
{"Molecule": "c1cc(CN2CCCNCCNCCCNCC2)ccc1CN1CCCNCCNCCCNCC1", "setting": "0.1 µM, 22 h", "quantity": "inhibition", "value": "55%"}
{"Molecule": "Fc1cnc(NCc2ccc(CNc3nccc(C(F)(F)F)n3)cc2)nc1", "assay": "cell invasion (Matrigel)", "setting": "10 nM, added: CXCL12 200 ng/mL", "quantity": "inhibition", "value": "> 60%"}
{"Molecule": "COc1c(C=O)c(O)cc2c1C(=O)c1ccccc1C2=O", "assay": "chemotactic migration, inhibitor, Transwell", "setting": "3 h, added: 10% FCS", "quantity": "effective concentration range", "value": "1 to 10 µM"}
